Assay results from different studies.
Numbered parts are unrelated; each lists some results of a single study.
Sequence of UniProt P10721 (whole entry, unmodified, looked up): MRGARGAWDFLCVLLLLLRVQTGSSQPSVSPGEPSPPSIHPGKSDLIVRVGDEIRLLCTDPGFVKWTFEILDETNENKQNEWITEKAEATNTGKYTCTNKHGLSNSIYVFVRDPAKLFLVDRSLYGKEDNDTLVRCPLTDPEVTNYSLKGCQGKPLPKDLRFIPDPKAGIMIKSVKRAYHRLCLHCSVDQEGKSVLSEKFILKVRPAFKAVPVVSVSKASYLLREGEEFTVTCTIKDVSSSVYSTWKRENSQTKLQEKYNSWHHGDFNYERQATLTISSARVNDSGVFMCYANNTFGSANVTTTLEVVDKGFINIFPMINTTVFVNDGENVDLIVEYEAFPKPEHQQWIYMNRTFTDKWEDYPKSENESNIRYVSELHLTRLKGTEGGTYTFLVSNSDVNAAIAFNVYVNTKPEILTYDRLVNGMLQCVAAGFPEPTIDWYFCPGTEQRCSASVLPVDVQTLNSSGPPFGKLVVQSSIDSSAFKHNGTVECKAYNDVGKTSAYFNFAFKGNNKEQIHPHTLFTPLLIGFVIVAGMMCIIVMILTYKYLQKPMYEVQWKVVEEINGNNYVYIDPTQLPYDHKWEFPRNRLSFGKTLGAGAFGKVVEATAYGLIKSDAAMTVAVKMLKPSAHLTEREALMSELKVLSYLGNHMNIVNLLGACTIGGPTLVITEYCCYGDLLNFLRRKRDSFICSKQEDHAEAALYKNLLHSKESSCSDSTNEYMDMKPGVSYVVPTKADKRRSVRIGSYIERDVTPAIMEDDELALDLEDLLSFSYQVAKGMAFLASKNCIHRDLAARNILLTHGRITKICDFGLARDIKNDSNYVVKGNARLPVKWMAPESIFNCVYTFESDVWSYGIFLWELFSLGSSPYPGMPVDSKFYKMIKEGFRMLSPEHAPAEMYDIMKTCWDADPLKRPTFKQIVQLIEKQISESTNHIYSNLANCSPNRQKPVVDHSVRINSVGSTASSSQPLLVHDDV
Sequence of UniProt P00519 (whole entry, looked up): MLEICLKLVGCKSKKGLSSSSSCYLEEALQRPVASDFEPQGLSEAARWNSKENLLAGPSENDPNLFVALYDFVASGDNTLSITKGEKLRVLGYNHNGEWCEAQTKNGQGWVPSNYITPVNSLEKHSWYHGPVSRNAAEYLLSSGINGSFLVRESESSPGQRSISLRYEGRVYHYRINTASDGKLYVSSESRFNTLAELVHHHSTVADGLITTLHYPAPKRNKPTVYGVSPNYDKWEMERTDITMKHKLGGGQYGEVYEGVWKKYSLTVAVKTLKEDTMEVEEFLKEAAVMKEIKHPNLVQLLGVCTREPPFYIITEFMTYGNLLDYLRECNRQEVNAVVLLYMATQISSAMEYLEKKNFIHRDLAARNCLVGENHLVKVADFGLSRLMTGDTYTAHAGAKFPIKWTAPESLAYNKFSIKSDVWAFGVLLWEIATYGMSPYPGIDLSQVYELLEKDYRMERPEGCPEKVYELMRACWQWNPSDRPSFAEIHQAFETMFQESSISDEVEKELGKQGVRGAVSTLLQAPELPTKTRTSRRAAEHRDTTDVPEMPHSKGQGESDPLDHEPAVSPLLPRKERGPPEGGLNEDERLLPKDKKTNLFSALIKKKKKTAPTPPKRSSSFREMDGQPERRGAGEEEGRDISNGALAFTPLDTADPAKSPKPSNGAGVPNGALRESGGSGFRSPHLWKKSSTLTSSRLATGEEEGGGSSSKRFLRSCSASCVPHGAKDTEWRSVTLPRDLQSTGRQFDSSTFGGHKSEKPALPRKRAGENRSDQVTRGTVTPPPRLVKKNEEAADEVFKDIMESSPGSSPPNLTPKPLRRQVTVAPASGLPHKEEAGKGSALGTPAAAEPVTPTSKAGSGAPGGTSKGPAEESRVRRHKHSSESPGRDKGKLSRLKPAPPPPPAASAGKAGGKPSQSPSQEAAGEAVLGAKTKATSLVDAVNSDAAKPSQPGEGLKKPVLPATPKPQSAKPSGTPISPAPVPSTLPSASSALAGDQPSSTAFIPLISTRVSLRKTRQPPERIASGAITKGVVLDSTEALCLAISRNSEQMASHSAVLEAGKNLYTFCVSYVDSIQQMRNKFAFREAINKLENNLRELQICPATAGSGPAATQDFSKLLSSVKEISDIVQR
Sequence of UniProt P78362 (whole entry, looked up): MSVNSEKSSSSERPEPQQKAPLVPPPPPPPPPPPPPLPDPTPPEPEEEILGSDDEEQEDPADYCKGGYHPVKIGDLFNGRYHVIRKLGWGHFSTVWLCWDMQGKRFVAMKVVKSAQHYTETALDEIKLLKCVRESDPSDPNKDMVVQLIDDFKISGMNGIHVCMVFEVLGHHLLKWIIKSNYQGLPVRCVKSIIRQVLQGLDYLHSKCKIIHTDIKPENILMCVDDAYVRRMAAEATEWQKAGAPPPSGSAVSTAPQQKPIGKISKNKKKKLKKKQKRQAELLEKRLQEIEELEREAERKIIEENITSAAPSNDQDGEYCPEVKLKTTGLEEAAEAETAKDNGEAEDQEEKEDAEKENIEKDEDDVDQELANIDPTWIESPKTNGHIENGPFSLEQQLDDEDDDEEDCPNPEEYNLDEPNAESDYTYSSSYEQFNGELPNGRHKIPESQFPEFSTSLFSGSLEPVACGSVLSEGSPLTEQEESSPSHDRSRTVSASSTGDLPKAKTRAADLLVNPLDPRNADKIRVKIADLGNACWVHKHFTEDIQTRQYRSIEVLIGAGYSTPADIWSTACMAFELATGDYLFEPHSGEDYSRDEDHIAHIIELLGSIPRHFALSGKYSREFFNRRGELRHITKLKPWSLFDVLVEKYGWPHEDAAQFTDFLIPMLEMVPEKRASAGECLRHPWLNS
Sequence of UniProt P21802 (whole entry, looked up): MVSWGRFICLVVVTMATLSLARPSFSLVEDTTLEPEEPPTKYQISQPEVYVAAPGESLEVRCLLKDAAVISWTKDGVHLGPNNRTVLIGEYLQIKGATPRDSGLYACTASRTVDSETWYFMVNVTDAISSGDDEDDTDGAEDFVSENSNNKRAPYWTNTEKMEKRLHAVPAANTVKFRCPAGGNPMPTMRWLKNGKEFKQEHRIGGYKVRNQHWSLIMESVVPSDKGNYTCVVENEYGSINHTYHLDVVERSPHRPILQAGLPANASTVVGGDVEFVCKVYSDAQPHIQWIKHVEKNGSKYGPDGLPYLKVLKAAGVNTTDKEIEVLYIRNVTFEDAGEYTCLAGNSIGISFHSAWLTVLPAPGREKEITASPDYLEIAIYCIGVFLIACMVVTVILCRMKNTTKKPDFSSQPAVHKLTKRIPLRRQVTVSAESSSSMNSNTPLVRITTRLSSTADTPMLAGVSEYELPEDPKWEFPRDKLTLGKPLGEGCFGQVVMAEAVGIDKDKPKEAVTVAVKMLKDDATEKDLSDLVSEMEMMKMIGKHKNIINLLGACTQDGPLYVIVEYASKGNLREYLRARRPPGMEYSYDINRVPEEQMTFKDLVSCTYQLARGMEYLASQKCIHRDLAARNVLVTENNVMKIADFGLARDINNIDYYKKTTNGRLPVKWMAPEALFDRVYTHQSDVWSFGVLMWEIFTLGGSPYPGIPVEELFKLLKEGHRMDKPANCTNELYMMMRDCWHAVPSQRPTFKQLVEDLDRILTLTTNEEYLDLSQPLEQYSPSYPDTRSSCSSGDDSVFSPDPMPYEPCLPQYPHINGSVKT
Sequence of UniProt Q9H3Y6 (whole entry, looked up): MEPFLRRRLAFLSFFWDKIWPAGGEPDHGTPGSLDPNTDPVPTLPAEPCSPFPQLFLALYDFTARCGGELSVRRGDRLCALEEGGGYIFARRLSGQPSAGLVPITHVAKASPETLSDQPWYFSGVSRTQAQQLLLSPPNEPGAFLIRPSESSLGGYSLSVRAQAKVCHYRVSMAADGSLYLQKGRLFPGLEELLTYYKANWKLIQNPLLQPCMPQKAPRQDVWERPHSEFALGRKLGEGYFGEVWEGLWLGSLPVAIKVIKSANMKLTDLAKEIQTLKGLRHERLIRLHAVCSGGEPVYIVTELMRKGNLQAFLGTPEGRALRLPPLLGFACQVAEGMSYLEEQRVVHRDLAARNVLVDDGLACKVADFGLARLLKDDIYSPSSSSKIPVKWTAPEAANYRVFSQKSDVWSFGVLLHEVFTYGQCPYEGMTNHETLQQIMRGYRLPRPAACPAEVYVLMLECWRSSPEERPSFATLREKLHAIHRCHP

Series 1 — technique: competition protein-binding microarray; form: double-stranded DNA, one strand shown; matrix: in vitro; concentration: 2 µM; added: Pho4 competitor, 0.05 µM; direction: higher = stronger binding
Target: Centromere-binding protein 1, full length, His-tagged (CBF1, Saccharomyces cerevisiae, UniProt P17106, residues 1-351)
Sequence of UniProt P17106 (whole entry, looked up): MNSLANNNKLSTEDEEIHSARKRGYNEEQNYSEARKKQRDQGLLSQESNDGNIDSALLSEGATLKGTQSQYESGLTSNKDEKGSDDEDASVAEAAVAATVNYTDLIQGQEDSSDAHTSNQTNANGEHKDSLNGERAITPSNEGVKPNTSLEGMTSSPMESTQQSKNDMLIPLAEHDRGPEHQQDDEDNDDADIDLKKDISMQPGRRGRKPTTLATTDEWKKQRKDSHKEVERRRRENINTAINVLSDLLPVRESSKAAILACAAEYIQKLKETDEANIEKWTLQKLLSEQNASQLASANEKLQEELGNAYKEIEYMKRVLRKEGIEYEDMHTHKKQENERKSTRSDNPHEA
Notes: whole 60-bp probe, lowest competitor level
`TGCGCAACAACTTGGTGTGTGGGTGTATGTCTAGAAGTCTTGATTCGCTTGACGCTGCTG` has a fluorescence intensity of 59.7 a.u.
`TGCGCAACAACTTAACACGTGTTTTTATGTCTAGAAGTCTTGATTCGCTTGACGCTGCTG` has a fluorescence intensity of 2950 a.u.
With `ACAAGCGGAGATTCACACGTTTAATTGGACCACTGGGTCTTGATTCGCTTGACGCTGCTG` the fluorescence intensity was 75.8 a.u.
`TGCGCAACAACTTGTCACGTGTTTTTATGTCTAGAAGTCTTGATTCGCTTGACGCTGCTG` gave a fluorescence intensity of 6330 a.u.
For `CAAACCACTATATCGCACGCACACCAGGAAAGTAAAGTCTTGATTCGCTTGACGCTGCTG`, the fluorescence intensity was 87.8 a.u.
`TTTTCAAAAATATTGCACGGGCTTTCTGTATATTGAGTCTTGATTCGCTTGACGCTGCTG` gave a fluorescence intensity of 110 a.u.
With `AAATTACTAAGTTGAGGCGTGGGTGACGCCGTATGAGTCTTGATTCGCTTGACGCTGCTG` the fluorescence intensity was 70.2 a.u.
For `TCGTTCCAGCCGTTCCACGTTTTTGTTATCTAAGCAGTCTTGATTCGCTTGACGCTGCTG`, the fluorescence intensity was 96.9 a.u.

Series 2 — read-out: cell-free assay; technique: competition with immobilised ligand; concentration: 1 µM
Compound: CN([C@@H]1CCc2c(CC(=O)O)c3cc(S(C)(=O)=O)ccc3n2C1)S(=O)(=O)c1ccc(F)cc1
The remaining binding was 86% (KIT (Homo sapiens, UniProt P10721)).
It gave 74% for remaining binding (TXK (Homo sapiens, UniProt P42681)).
For Tyrosine-protein kinase ABL1, non-phosphorylated (ABL1, Homo sapiens, UniProt P00519): remaining binding read 95%.
The remaining binding was 85% (SGK3 (Homo sapiens, UniProt Q96BR1)).
KIT (Homo sapiens, UniProt P10721, L576P) — remaining binding: 89%.
It gave 100% for remaining binding (PRKCD (Homo sapiens, UniProt Q05655)).
It gave 100% for remaining binding (MAP4K5 (Homo sapiens, UniProt Q9Y4K4)).
The remaining binding was 100% (MAP2K7 (Homo sapiens, UniProt O14733)).
It gave 100% for remaining binding (RAF1 (Homo sapiens, UniProt P04049)).
The remaining binding was 88% (SRMS (Homo sapiens, UniProt Q9H3Y6)).
PIKFYVE (Homo sapiens, UniProt Q9Y2I7) — remaining binding: 97%.
For NEK11 (Homo sapiens, UniProt Q8NG66): remaining binding read 100%.
For EGFR (Homo sapiens, UniProt P00533, G719S): remaining binding read 100%.
The remaining binding was 100% (EGFR (Homo sapiens, UniProt P00533, del752-759)).
FGFR2 (Homo sapiens, UniProt P21802) — remaining binding: 89%.
It gave 100% for remaining binding (SRPK2 (Homo sapiens, UniProt P78362)).
It gave 100% for remaining binding (BMX (Homo sapiens, UniProt P51813)).

Series 3 — technique: RNA Bind-n-Seq; form: RNA; matrix: in vitro; concentration: 15 pmol; notes: 4-mer, random 30-nt RNA, single round; added: 3 µM DMDA-PatA, 2 mM AMP-PNP; relative to: input library; direction: higher = stronger binding
Target: Eukaryotic initiation factor 4A-I (EIF4A1, Homo sapiens, UniProt P60842, residues 1-406, full length assumed)
Sequence of UniProt P60842 (whole entry, looked up): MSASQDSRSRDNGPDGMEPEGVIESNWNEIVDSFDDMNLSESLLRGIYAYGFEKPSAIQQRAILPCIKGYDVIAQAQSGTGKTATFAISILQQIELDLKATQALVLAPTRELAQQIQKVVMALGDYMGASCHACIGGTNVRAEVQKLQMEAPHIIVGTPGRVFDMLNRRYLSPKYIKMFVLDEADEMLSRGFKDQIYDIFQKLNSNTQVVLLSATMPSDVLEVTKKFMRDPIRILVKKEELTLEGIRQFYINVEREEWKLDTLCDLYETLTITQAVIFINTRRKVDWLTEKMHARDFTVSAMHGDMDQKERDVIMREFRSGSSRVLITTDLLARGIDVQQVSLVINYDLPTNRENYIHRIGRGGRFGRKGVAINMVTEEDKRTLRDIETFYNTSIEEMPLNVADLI
For `CAUC`, the 4-mer enrichment was 0.4 fold.
With `AACU` the 4-mer enrichment was 0.764 fold.
For `CGGC`, the 4-mer enrichment was 0.655 fold.
`UAAG` has a 4-mer enrichment of 1.39 fold.
For `CGCG`, the 4-mer enrichment was 1.2 fold.
The 4-mer enrichment of `UUUU` is reported as 1.18 fold.
For `UUAA`, the 4-mer enrichment was 1.08 fold.
`AUGC` has a 4-mer enrichment of 0.908 fold.

Other studies, line by line — cell line: A-375; concentration: 100 µM; time: 36 h
With `CO[C@@]1(NC(=O)Cc2cccs2)C(=O)N2C(C(=O)O)=C(COC(N)=O)CS[C@@H]21` the viability was 113%.
`CO/N=C(\C(=O)N[C@@H]1C(=O)N2C(C(=O)O)=C(CSc3nnnn3C)CS[C@H]12)c1csc(N)n1` gave a viability of 103%.

Some of these lines once more (series 2):
It gave 100% for remaining binding (RAF1 (Homo sapiens, UniProt P04049)).
The remaining binding was 88% (SRMS (Homo sapiens, UniProt Q9H3Y6)).
